Measured values pooled from the literature.
Parts stem from different laboratories: compare values within a part only.

Study 1 — method: protein-binding microarray; molecule type: double-stranded DNA, one strand shown; sample: in vitro; concentration: 2200 nM top; notes: 60-bp whole probe; added: salmon DNA 0.4 mg/ml; reference: random background probes; reading: higher = stronger binding; endpoint: fitted relative affinity; constant ends, left off below: GCCTAGCAC … GTCTTGATTCGCTTGACGCTGCTG
Target: Interferon regulatory factor 7, full length, phosphomimetic (IRF7, Homo sapiens, UniProt Q92985, residues 1-503, S471D/S472D/S475D/S476D/S477D/S483D/S484D/S487D)
Chain of UniProt Q92985 (whole entry, unmodified, looked up): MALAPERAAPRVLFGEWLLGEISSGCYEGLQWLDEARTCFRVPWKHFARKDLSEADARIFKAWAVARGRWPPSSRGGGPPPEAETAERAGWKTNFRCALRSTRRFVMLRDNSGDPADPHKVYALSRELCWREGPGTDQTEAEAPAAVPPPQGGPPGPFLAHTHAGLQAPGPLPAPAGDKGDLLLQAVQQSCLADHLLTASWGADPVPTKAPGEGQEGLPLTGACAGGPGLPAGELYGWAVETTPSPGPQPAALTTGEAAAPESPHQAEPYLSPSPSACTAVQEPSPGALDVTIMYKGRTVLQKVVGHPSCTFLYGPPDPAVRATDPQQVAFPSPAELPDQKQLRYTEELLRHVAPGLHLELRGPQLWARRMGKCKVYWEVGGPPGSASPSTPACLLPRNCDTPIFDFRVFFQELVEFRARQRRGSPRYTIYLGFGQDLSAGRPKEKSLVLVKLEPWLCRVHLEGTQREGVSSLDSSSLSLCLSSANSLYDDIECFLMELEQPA
Oligonucleotide = GACGATTTCTGACTGGAGACGTGCTAG; value = 0.602 z-score
Oligonucleotide = GACGGTTTCGTCACTGGGGACGTGCTA; value = 2.01 z-score
Oligonucleotide = GACGAACTGGGGACTGGAGACGTGCTA; value = -0.291 z-score
Oligonucleotide = GACGGTCTCGGTATCGGGAGGTGCTAG; value = 0.0438 z-score
Oligonucleotide = CTAGGTATCGGTCTCGGTTAGTGCTAG; value = 0.855 z-score
Oligonucleotide = GTAGGACTGGGGTTTCGGTTAGTGCTA; value = 2.22 z-score
Oligonucleotide = CTGCTGCAGGCAGCACGCTGGTGCTAG; value = -0.591 z-score
Oligonucleotide = CAAACACTAATTTTCAATTCGTGCTAG; value = 1.43 z-score

Study 2 — method: aptamer microarray, sandwich; molecule type: DNA with 2'F-ANA; sample: in vitro; concentration: 200 nM; added: Cy3 exosite-II aptamer, 400 nM; reading: higher = stronger binding; endpoint: mean fluorescence intensity; oligonucleotide: GGTTGGTGTGGTTGG
Target: Prothrombin, mature alpha-thrombin (F2, Homo sapiens, UniProt P00734)
Notes: whole 15-mer aptamer, many near background
Modification = 2'F-ANA at 1 3 7 10 11 14; value = 55.5 a.u.
Modification = 2'F-ANA at 1 3 6 7 8 9 13 15; value = 222 a.u.
Modification = 2'F-ANA at 2 4 6 10 12 13 14 15; value = 68 a.u.
Modification = 2'F-ANA at 2 3 9 10 11 13 14; value = 269 a.u.
Modification = 2'F-ANA at 1 2 5 7 9 13 14 15; value = 46.2 a.u.
Modification = 2'F-ANA at 1 2 4 8 9 14; value = 87.6 a.u.
Modification = 2'F-ANA at 2 3 4 7 8 9 10 11 13; value = 214 a.u.
Modification = 2'F-ANA at 2 3 5 6 8 9 10 12; value = 78.1 a.u.

Study 3 — method: RNA Bind-n-Seq; molecule type: RNA; sample: in vitro; concentration: 20 nM; notes: 6-mer, flanks averaged, single round; added: 150 mM KCl; reference: input library; reading: higher = stronger binding; endpoint: 6-mer enrichment (R)
Target: TAR DNA-binding protein 43, full length, His tag (TARDBP, Homo sapiens, UniProt Q13148, residues 1-414)
Oligonucleotide = UAUCGU; value = 0.6
Oligonucleotide = CGAAAC; value = 0.617
Oligonucleotide = CCCCCA; value = 0.692
Oligonucleotide = UUUAGG; value = 0.844
Oligonucleotide = GUUUAU; value = 0.677
Oligonucleotide = GCUCUG; value = 0.794
Oligonucleotide = UGGAAU; value = 0.829
Oligonucleotide = AUUUCA; value = 0.549
Oligonucleotide = UCCUCC; value = 0.563
Oligonucleotide = UCCUGC; value = 0.608
Oligonucleotide = GCAUGC; value = 0.992
Oligonucleotide = GAGAGC; value = 1.41
Oligonucleotide = GGUGCG; value = 3.45

Mixed results
Substance = PhoQ, residues 284 288 289 292 302 303 AEGLLW; target = PhoP, residues 12 14 15 18 19 NMSSL (Escherichia coli, UniProt P23836); assay = Sort-seq, item: YFP reporter; test system = E. coli; conditions = PhoQ-PhoP variant library, added: 10 µM Mg2+; how to read = reference: high Mg2+ state, higher = stronger signaling; endpoint = fold induction; value = 9.42
